Assay results from different studies.
Each line is one published result; not all experiments were run side by side. Several values in a cell are separate wells, animals, samples, runs or records. ± gives the spread as reported. ≈ marks a conversion by molar mass, not a printed value.

Structure (SMILES)	assay	system	conditions	scale	endpoint	result
Cc1n[nH]c(C)c1CCCOc1cc(C(=O)NCCCCC(NC(=O)CN2CCN(CC(=O)[O-])CCN(CC(=O)[O-])CCN(CC(=O)[O-])CC2)C(=O)NCC2CCC(C(=O)NC(Cc3ccc4ccccc4c3)C(=O)NCCCCC(NC(=O)NC(CCC(=O)O)C(=O)O)C(=O)O)CC2)ccc1F.[177Lu+3] (centres unmarked)		mouse 22Rv1 xenograft	intravenous, 14.8 MBq		tumour growth inhibition	88.4%
COc1ccccc1-c1n[nH]c2nc(NC3CCN(C(=O)Cc4ccc(F)cc4F)CC3)ncc12	bead binding, competition bead pull-down, measured: LINJ.33.1660	Leishmania donovani axenic amastigote extract	10 µM	baseline: vehicle	relative abundance	1.04
Cc1ccc(S(=O)(=O)N2CC2C(=O)N(C)C)cc1 (centres unmarked)		mouse, Lewis lung carcinoma	intraperitoneal, 170 mg/kg, 16 doses, day 9		tumour volume	371 mm3
COC(=O)[C@@H](NC(=O)c1nn(Cc2ccc(F)cc2)c2cc(OCCCCNC(=N)N)ccc12)C(C)(C)C		mouse chronic NTG headache model	intraperitoneal, 1 mg/kg, post-treatment		cephalic allodynia	decreased
N#CC(=Cc1ccccc1)n1cccn1			pH 7.4		β-elimination rate constant	0.0002 min⁻¹
CCN(Cc1ccccc1)C(=O)CCc1nc(CN2CCN(C(=O)Cc3ccc(OC)c(OC)c3)CC2)no1	current clamp	DRG neurons, naive rat	3 µM, with: 500 pA current injection		action potential number	0.71 ± 0.07
O=C(O)c1ccc(-c2nc(-c3ccccc3Cl)c3sccn23)cc1		C57BL/6 mice	dose not given, days 26 and 27 pooled, basal hematopoiesis		platelet count change	137% and 104% and 112% and 134% and 84.8% and 96.1%
Cc1ccc(C2=CC(C)(C)Oc3ccc(-c4ccc(-c5ccc(C(=O)O)cc5)[nH]4)cc32)cc1		CD-1 mouse, male, testis	20 mg/kg/day, 2 weeks, one day after dosing end		tubules with abnormal round spermatids	37% and 60.4%
CC(C)C[C@H](NC(=O)[C@H](CCC(=O)O)NC(=O)[C@H](Cc1ccccc1)NC(=O)[C@@H]1CCCN1C(=O)CNC(=O)OCc1ccccc1)C(=O)N[C@@H](CCC(=O)O)C(=O)N[C@@H](CCCNC(=N)N)C(=O)N[C@@H](CCCNC(=N)N)C(=O)N[C@@H](Cc1ccccc1)C(=O)N[C@@H](CCCCN)C(=O)N[C@@H](CCC(N)=O)C(=O)N[C@@H](CCC(N)=O)C(=O)O		mouse orthotopic tumour			perfusion fraction f	0.0837
O=C1NC2(CC2)COc2ncc(F)cc2[C@H]2COCCN2c2ccn3ncc1c3n2		Sprague-Dawley rat, female, serum	oral, 5 mg/kg/day, 4 weeks daily, end of treatment		creatinine	34.4 ± 4.7 µmol/L
CC[C@H](C)[C@@H]([C@@H](CC(=O)N1CCC[C@H]1[C@H](OC)[C@@H](C)C(=O)N[C@H](C)[C@@H](O)c1ccccc1)OC)N(C)C(=O)[C@@H](NC(=O)[C@H](C(C)C)N(C)C(=O)OCc1ccc(NC(=O)[C@H](CCCNC(N)=O)NC(=O)[C@@H](NC(=O)CCCCCN2C(=O)CC(SC[C@H](NC(=O)[C@H](CC(=O)O)NC(=O)[C@H](Cc3ccc(O)cc3)NC(=O)[C@H](Cc3c[nH]c4ccccc34)NC(=O)[C@@H](N)CCCNC(=N)N)C(=O)O)C2=O)C(C)C)cc1)C(C)C (some centres unmarked)		C57BL/6 mouse, subcutaneous Lewis lung carcinoma	dose not given, end of study		tumour weight	decreased
CC[C@H](C)[C@H](NC(=O)[C@H](CCCNC(=N)N)NC(=O)[C@H](CCCNC(=N)N)NC(=O)[C@H](CC(C)C)NC(=O)[C@H](Cc1ccccc1)NC(=O)CNC(=O)CNC(=O)[C@@H](N)Cc1ccc(O)cc1)C(=O)N[C@@H](CCCNC(=N)N)C(=O)O	[3H]deltorphin II uptake, inhibitor	rabbit, cells	15 min, NaCl-containing medium		IC50	7.8 ± 1 µM
CC[C@H](C)[C@H](NC(=O)[C@H](CC(C)C)NC(=O)[C@H](CC(=O)O)NC(=O)[C@H](CCCNC(=N)N)NC(=O)[C@H](Cc1c[nH]c2ccccc12)NC(=O)[C@@H](N)CC(C)C)C(=O)N[C@@H](CS)C(=O)N[C@@H](CC(C)C)C(=O)N[C@@H](CS)C(=O)N[C@@H](CCCNC(=N)N)C(=O)N[C@@H](CC(N)=O)C(=O)N[C@@H](CCCNC(=N)N)C(=O)N[C@@H](CCCNC(=N)N)C(=O)N[C@@H](CS)C(=O)N[C@@H](CC(N)=O)C(=O)N[C@@H](CCCNC(=N)N)C(=O)NCC(=O)N[C@@H](CCC(N)=O)C(=O)N[C@@H](CC(C)C)C(=O)N[C@@H](Cc1ccccc1)C(=O)N1CCC[C@H]1C(=O)NCC(=O)N[C@@H](Cc1c[nH]c2ccccc12)C(=O)N[C@@H](CS)C(=O)N1CCC[C@H]1C(=O)NCC(=O)N[C@@H](Cc1c[nH]c2ccccc12)C(=O)N[C@@H](Cc1c[nH]c2ccccc12)C(=O)N[C@@H](CC(C)C)C(=O)N[C@@H](CCCNC(=N)N)C(=O)N[C@@H](CS)C(=O)N[C@@H](CS)C(=O)N[C@@H](CCCNC(=N)N)C(=O)N[C@@H](CCCNC(=N)N)C(N)=O		female C57BL/6J mice, DSS colitis	oral, 5 mg/kg, 7 days		spleen index	3.67 ± 0.5 mg/g
CCCCCC1=C(NCC)C(=O)C(C/C=C(\C)CCC=C(C)C)=C(O)C1=O	RNA-seq GSEA, measured: HALLMARK_MTORC1_SIGNALING	mouse, A53T α-synuclein lesioned, striatum	dose not given	baseline: untreated A53T lesioned mice, direction not given	normalised enrichment score	-1.4
Cc1cc(O)cc(C)c1C[C@H](N)C(=O)N[C@H](CCCNC(=N)N)C(=O)N[C@@H](Cc1ccccc1)C(=O)N[C@@H](CCCCN)C(=O)NCCCCCCCCNC(=O)[C@H](Cc1ccccc1)NC(=O)[C@H](CC1CCCCC1)NC[C@@H]1Cc2ccccc2CN1C(=O)[C@@H](N)Cc1ccc(O)cc1	agonist	guinea pig ileum			IC50	0.318 ± 0.049 µM
CCCC[C@@H]1NC(=O)[C@H](Cc2ccc(O)cc2)NC(=O)[C@@H]2CCCN2C(=O)[C@H](CC(=O)O)NC(=O)[C@H](C)NC(=O)[C@H](Cc2ccccc2)NC(=O)[C@@H]2CSCCC(=O)N3CN(CN(C3)C(=O)CCSC[C@@H](C(=O)N[C@@H](C)C(N)=O)NC1=O)C(=O)CCSC[C@H](NC(C)=O)C(=O)N[C@@H](CC(C)(C)C)C(=O)N1CCC[C@H]1C(=O)N[C@@H](CCC(=O)O)C(=O)N[C@H](CCCCNC(=O)CCc1cn(CCOCCOCCOCCN(CCOCCOCCOCCC(=O)N[C@H]3CSCCC(=O)N4CN5CN(C4)C(=O)CCSC[C@H](NC(=O)[C@@H](CC(=O)O)NC(=O)[C@H](Cc4cccc6ccccc46)NC(=O)[C@@H]4CCCN4C3=O)C(=O)N[C@@H](CCSC)C(=O)N[C@@H](CCCCNC(=N)N)C(=O)N[C@@H](CC(=O)O)C(=O)N[C@@H](Cc3c[nH]c4ccccc34)C(=O)N[C@@H](CO)C(=O)N[C@@H]([C@@H](C)O)C(=O)N3CCC[C@H]3C(=O)N3C[C@H](O)C[C@H]3C(=O)N[C@@H](Cc3c[nH]c4ccccc34)C(=O)N[C@H](C(N)=O)CSCCC5=O)CCOCCOCCOCCn3cc(CCC(=O)NCCCC[C@H]4NC(=O)[C@H](CCC(=O)O)NC(=O)[C@@H]5CCCN5C(=O)[C@H](CC(C)(C)C)NC(=O)[C@@H](NC(C)=O)CSCCC(=O)N5CN6CN(C5)C(=O)CCSC[C@H](NC(=O)[C@H](Cc5ccc(O)cc5)NC(=O)[C@@H]5CCCN5C4=O)C(=O)N[C@@H](Cc4ccccc4)C(=O)N[C@@H](C)C(=O)N[C@@H](CC(=O)O)C(=O)N4CCC[C@H]4C(=O)N[C@@H](Cc4ccc(O)cc4)C(=O)N[C@@H](CCCC)C(=O)N[C@H](C(=O)N[C@@H](C)C(N)=O)CSCCC6=O)nn3)nn1)C(=O)N1CCC[C@H]1C(=O)N[C@@H](Cc1ccc(O)cc1)C(=O)N2	NanoString, measured: Trem2-mRNA	mouse bearing MC38-Nectin-4 tumour, circulating white blood cells	5 mg/kg, 24 h after dosing, unit not given	baseline: vehicle	mRNA level	0.323
COC(=O)C1CN1S(=O)(=O)c1ccc(C)cc1 (centres unmarked)		mouse Lewis lung carcinoma	intraperitoneal, 100 mg/kg, day 16		tumour growth inhibition	56%
COc1ccccc1-c1n[nH]c2nc(N[C@H]3CC[C@H](NS(=O)(=O)CC(C)C)CC3)ncc12	bead binding, competition bead pull-down, measured: LINJ.03.0380	Leishmania donovani extract	10 µM	baseline: vehicle	relative abundance	0.83
CC[C@H](C)[C@H](NC(=O)[C@H](CCCNC(=N)N)NC(=O)[C@H](CO)NC(=O)[C@H](Cc1ccc(O)cc1)NC(=O)[C@@H](NC(=O)[C@@H](NC(=O)[C@H](C)NC(=O)CNC(=O)[C@H](CCCCN)NC(=O)[C@H](CCCCN)NC(=O)CCNC(=O)CCCCCNC(=O)[C@H](CCCNC(=N)N)NC(=O)CCCCCNC(=O)[C@H](CCCNC(=N)N)NC(=O)[C@H](CCCNC(=N)N)NC(=O)CCCCCNC(=O)[C@H](CCCNC(=N)N)NC(=O)[C@H](CCCNC(=N)N)NC(=O)CCCCCNC(=O)[C@H](CCCNC(=N)N)NC(=O)[C@H](CCCNC(=N)N)NC(=O)CCCCCNC(=O)[C@@H](N)CCCNC(=N)N)C(C)C)[C@@H](C)O)C(=O)N[C@@H](CO)C(=O)NCC(=O)N[C@@H](CCC(N)=O)C(=O)N[C@@H](Cc1ccc(O)cc1)C(=O)N[C@@H](CCCCN)C(=O)O	broth microdilution	ATCC 27853 resistant strain, Mueller-Hinton broth			MIC	48 µM (≈ 171 µg/mL)
CC(C)C[C@@H]1NC(=O)[C@@H](Cc2c[nH]c3ccccc23)NC(=O)[C@H](CCCNC(=N)N)NC(=O)[C@@H](CCC(=O)O)NC(=O)[C@H](CCC(N)=O)NC(=O)[C@@H](CCC(=O)O)NC(=O)[C@H](CCCNC(=N)N)NC(=O)[C@@H](Cc2c[nH]c3ccccc23)NC1=O	Luminex, measured: IFNg	LDLr-/- mice, Western diet, liver	dose not given, 4 weeks		cytokine level	37 ± 16 pg/g tissue

Excerpt of the above:
Structure (SMILES)	assay	system	conditions	scale	endpoint	result
O=C(O)c1ccc(-c2nc(-c3ccccc3Cl)c3sccn23)cc1		C57BL/6 mice	dose not given, days 26 and 27 pooled, basal hematopoiesis		platelet count change	137% and 104% and 112% and 134% and 84.8% and 96.1%
COc1ccccc1-c1n[nH]c2nc(N[C@H]3CC[C@H](NS(=O)(=O)CC(C)C)CC3)ncc12	bead binding, competition bead pull-down, measured: LINJ.03.0380	Leishmania donovani extract	10 µM	baseline: vehicle	relative abundance	0.83
Cc1cc(O)cc(C)c1C[C@H](N)C(=O)N[C@H](CCCNC(=N)N)C(=O)N[C@@H](Cc1ccccc1)C(=O)N[C@@H](CCCCN)C(=O)NCCCCCCCCNC(=O)[C@H](Cc1ccccc1)NC(=O)[C@H](CC1CCCCC1)NC[C@@H]1Cc2ccccc2CN1C(=O)[C@@H](N)Cc1ccc(O)cc1	agonist	guinea pig ileum			IC50	0.318 ± 0.049 µM
